Assay results from different studies.
A part holds a random share of what one study measured. “And” joins repeats or separate records; there may be more than shown.

Set 1 — technique: RNAcompete; molecule type: RNA; medium: in vitro; concentration: 20 nM; notes: 7-mer, probes averaged, single round; baseline: mean of 7-mers; direction: higher = stronger binding
Target: PABPC1L2, full length, GST fusion (mouse, UniProt A0ABA7IW68)
Construct (chain): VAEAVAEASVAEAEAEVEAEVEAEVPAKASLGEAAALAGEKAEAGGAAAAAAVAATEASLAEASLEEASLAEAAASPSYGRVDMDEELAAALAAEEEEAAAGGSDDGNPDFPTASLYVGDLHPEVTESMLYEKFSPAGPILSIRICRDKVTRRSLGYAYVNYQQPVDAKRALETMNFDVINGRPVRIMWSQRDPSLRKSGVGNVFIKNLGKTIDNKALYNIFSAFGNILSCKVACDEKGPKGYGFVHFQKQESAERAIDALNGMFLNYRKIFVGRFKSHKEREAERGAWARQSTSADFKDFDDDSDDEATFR
| Strand | 7-mer Z-score |
| --- | --- |
| UACCUCC | -0.407 |
| AGGGACG | 0.273 |
| AUAGAGA | -0.0428 |
| GCUCGGC | -0.231 |

Set 2 — cell line: HEK-293T-ACE2; concentration: concentration not given; baseline: vehicle
| SMILES | cell number [%] |
| --- | --- |
| C[C@]12CC[C@@H]3c4ccc(O)cc4CC[C@H]3[C@@H]1CC[C@@H]2OC(=O)CCC1CCCC1 | 107 |
| CNC(=O)c1cc(Oc2ccc(NC(=O)Nc3ccc(Cl)c(C(F)(F)F)c3)c(F)c2)ccn1 | 89.9 |
| CC(C)C[C@H](NC(=O)[C@H](Cc1ccccc1)NC(=O)c1cnccn1)B(O)O | 71.6 |

Set 3 — technique: RNA Bind-n-Seq; molecule type: RNA; medium: in vitro; concentration: 1 µM; notes: whole 134-nt RNA, ends assumed; with: 150 mM KCl; baseline: input library; direction: higher = stronger binding
Target: Ras GTPase-activating protein-binding protein 1, C-terminal RGG region (G3BP1, Homo sapiens, UniProt Q13283)
UniProt Q13283, sequence (whole entry, looked up): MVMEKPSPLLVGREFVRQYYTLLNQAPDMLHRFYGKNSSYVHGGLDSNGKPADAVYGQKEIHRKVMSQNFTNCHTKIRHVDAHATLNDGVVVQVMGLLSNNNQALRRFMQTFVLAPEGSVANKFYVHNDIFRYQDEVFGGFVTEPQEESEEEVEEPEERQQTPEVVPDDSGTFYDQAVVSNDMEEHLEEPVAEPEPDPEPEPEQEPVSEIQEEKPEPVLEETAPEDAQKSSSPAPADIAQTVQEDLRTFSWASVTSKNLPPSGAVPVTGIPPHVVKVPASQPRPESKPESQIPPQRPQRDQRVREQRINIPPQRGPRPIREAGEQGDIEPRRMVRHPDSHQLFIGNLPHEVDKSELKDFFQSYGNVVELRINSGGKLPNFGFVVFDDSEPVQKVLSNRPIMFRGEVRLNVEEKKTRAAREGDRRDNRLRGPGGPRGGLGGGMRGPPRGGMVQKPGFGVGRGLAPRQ
Shared flanks, not repeated: GGGAGUUCUACAGUCCGACGAUC … UGGAAUUCUCGGGUGUCAAGG
| Strand | log2 enrichment |
| --- | --- |
| CCUGUGCUACACAUCGUAUGUACCGAAUCGGCCCCCCCGGGCCCCCCCGGGCCCCCCCGGGAAAGUAUUAUGUUACGCCGUUCGGAUCUG | -1.83 |
| UGGGAGGUGGAUUUUGUUUAUUUUUUUAGCUCAUUUCCAGGGGUGGGAAUUUUUUUUUAAUAUGUGUCAUGAAUAACGUUGUUUUUGAAA | 1.48 |
| AGUCCUGUGCUACACAUCGUAUGUACCGAAUCGGGAAAAAGGGAAAAAAAGGGAGGGAAAGUAUUAUGUUACGCCGUUCGGAUCUGCACU | 0.801 |
| CCUCAAGUCCUGUGCUACACAUCGUAUGUACCGAAUCGGCGGGGCGGGCGGGAAAGUAUUAUGUUACGCCGUUCGGAUCUGCACUUCCAG | 0.96 |
| AAGUCCUGUGCUACACAUCGUAUGUACCGAAUCGGGGAAAGGGAAAGGGGAAAGGGAAAGUAUUAUGUUACGCCGUUCGGAUCUGCACUU | 0.996 |
| CUCAAGUCCUGUGCUACACAUCGUAUGUACCGAAUCGGGGCGGGGCGGGGCGGGAAAGUAUUAUGUUACGCCGUUCGGAUCUGCACUUCC | 2.42 |
| UCCUGUGCUACACAUCGUAUGUACCGAAUCGGGGUGGGGUUUUUGGGGAAAAAAAGGGGAAAGUAUUAUGUUACGCCGUUCGGAUCUGCA | 0.934 |
| UGUUUAUCCAACAUAUGAUUUUGCCUGCCCCAUAGUUGACAGCAUCGAAGGUGUUACACAUGCCCUGAGAACAACAGAAUACCAUGACAG | -0.908 |

Set 4 — technique: protein binding microarray; molecule type: double-stranded DNA, one strand shown; medium: in vitro; concentration: not given; baseline: not given; direction: higher = stronger binding
Target: Histone acetyltransferase KAT6A, both winged helices, GST fusion (KAT6A, Homo sapiens, UniProt Q92794, residues 1-181)
Notes: 8-mer, flanks averaged, mean of 2 arrays, mostly near background
Target sequence (chain): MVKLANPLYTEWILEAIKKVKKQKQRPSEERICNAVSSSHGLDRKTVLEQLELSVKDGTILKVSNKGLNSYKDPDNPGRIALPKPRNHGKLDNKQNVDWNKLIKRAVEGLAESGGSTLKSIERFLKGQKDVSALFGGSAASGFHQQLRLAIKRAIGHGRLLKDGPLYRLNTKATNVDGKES
| Strand | E-score |
| --- | --- |
| AGGGGCAT | -0.296 |
| ACAATAAA | -0.106 |
| CAAAAACG | 0.0581 |
| GCGGGGCC | 0.269 |
| AGCATAAG | -0.124 |
| GGTGGTGA | 0.01 |
| GGGCGGAC | 0.181 |
| CACGCGCC | 0.235 |

Set 5 — mode: inhibitor; concentration: 20 µM
Target: Replicase polyprotein 1ab, nsp13 helicase (rep, Severe acute respiratory syndrome coronavirus 2, UniProt P0DTD1)
| SMILES | inhibition |
| --- | --- |
| CNc1cc2[nH]c(=O)n(-c3ccc(NC(=O)NS(=O)(=O)c4ccc(Cl)s4)cc3)c(=O)c2cc1F | 0.4% |
| O=C(c1ccc2nccnc2c1)N1CCCCC1 | -0.71% and 6.04% |
| O=C(O)[C@@H]1C[C@@H](C2CCCCC2)CN1C(=O)CP(=O)(O)CCCCc1ccccc1 | 4.02% |
| CCc1cc(O)c(Oc2ccc(C(N)=O)cc2F)cc1F | 4.14% |
| CCC(CC)(NC(=O)C(C)C)C(=O)N[C@@H](CCCN=C(N)N)C(=O)NC1(C(=O)NC(c2ccc(F)cc2)c2ccc(F)cc2)CCCC1 | 10.4% |
| COCCc1ccc(OCC(O)CNC(C)C)cc1 (stereo not shown) | 4.53% |
| CCCOc1ccc(C(=O)OCCN(CC)CC)cc1N | 4.09% |
| Cn1cc(-c2ccc3ncc(Cc4ccc5ncccc5c4)n3n2)cn1 | 12.6% |
| CCOc1nc2cccc(C(=O)O)c2n1Cc1ccc(-c2ccccc2-c2noc(=O)[nH]2)cc1 | 2.21% |
| NCCCCCC(=O)O | 5.55% |
| COc1cccc(/C=N/N=C/c2cccc(OC)c2)c1 | 1.96% |
| O=C(CCCCCCNC(=O)c1cnc(N(c2ccccc2)c2ccccc2)nc1)NO | 6.77% |
| COc1ccc(CCN(C)CCc2ccc(OC)c(OC)c2)cc1OC | -0.87% |
| CO/N=C1\C[C@]2(C[C@@H]3C[C@@H](C/C=C(\C)C[C@@H](C)/C=C/C=C4\CO[C@@H]5[C@H](O)C(C)=C[C@@H](C(=O)O3)[C@]45O)O2)O[C@H](/C(C)=C/C(C)C)[C@H]1C | 6.23% |
| CC[N+](CC)(CC(=O)Nc1c(C)cccc1C)Cc1ccccc1 | -5.71% |
| Cn1c(=O)c2nc[nH]c2n(C)c1=O | 5.48% |
| Cc1c[nH]c2ncnc(N3CCC(CN)(C(=O)Nc4cccc(OC(=O)N(C)C)c4)CC3)c12 | 0.54% |
| CN1[C@@H]2CC[C@H]1C[C@@H](OC(=O)c1c[nH]c3ccccc13)C2 | -1.51% |
| Cc1oc2nc3c(c(NC(=O)CN4CCCC4=O)c2c1C)CCCC3 | 0.88% |
| Fc1ccc(-c2nc(-c3c(F)cccc3F)[nH]c2-c2ccncc2)cc1 | 8.75% |
| CC(COc1ccccc1Cc1ccccc1)N1CCCCC1 (stereo not shown) | -4.22% |
| CCOC(=O)Nc1ccc(NCc2c(C)cc(C)cc2C)cc1N | 9.64% |
| CC(C)n1cnc2c(C(=O)N[C@H]3CN4CCC3CC4)cc(Cl)cc21 | 2.95% |
| COc1ccc(CCN(C)CCCN2CCc3cc(OC)c(OC)cc3CC2=O)cc1OC | 10% |

Other studies, line by line
UNK zinc fingers 1-6, GST-SBP tag: RING finger protein unkempt homolog, zinc fingers 1-6, GST-SBP tag (UNK, Homo sapiens, UniProt Q9C0B0, residues 30-357)
UniProt Q9C0B0, sequence (30-357, looked up): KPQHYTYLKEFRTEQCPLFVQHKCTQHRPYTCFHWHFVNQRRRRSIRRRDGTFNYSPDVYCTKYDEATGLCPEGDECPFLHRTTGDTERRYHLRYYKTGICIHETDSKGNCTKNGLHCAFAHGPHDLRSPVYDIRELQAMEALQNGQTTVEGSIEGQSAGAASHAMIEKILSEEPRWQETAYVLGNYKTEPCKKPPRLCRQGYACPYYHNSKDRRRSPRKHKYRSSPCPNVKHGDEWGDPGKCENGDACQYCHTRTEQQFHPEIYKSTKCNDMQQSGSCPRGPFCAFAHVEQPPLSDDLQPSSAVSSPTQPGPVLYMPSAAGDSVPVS
| Substance | target | assay | system | conditions | scale | quantity | value |
| --- | --- | --- | --- | --- | --- | --- | --- |
| GGGAGUUCUACAGUCCGACGAUCUUGAAGCAAGUUCUCGGCCAGAUGGUGAUUGAUGAGGAGCUUCUGGGAGAUGGACACAGCUAUAGUCCUAGAGCUAUUCAUUCAUGGCUGACCAGGGCCAUGUACAGCCGGCGCUCGAAGCAACAGAGGAUUGAGCAUCA | UNK zinc fingers 1-6, GST-SBP tag | RNA Bind-n-Seq | RNA, in vitro | not given, RNA with constant flanks, human and mouse sites, ends assumed | baseline: input RNA pool, higher = stronger binding | bound/input enrichment | 0.116 ratio |
| CC1=NN(c2ccc(C(=O)O)cc2)C(=O)C1=Cc1ccc(-c2cc(C)c(C)cc2[N+](=O)[O-])o1 | Replicase polyprotein 1ab, main protease (rep, Severe acute respiratory syndrome coronavirus 2, UniProt P0DTD1) | enzyme activity, inhibitor | – | 20 µM, primary screen | – | inhibition | 31.6% |
| GGGAGUUCUACAGUCCGACGAUCCCCCUCCCGGCCAGACGCUGGCCAUUGCUGCACCAUGUCGUUUUUUACAACAUUCAGCUUCAGCAUUUUUACUAUUAUAAUAAGAAACUGUCCCUCCAAAUUCAAUAAAAAUUGCUUUUCCAACAGAGGAUUGAGCAUCA | UNK zinc fingers 1-6, GST-SBP tag | RNA Bind-n-Seq | RNA, in vitro | not given, RNA with constant flanks, human and mouse sites, ends assumed | baseline: input RNA pool, higher = stronger binding | bound/input enrichment | 1.35 ratio |
| GGGAGUUCUACAGUCCGACGAUCAACUACGUGAAGAUUAAGCUUUGCUUACUGAUACAUGGCAUGUAUUCUUUUCAGUCUUUUGUGUUUGAUUUUGUUUGAUUUCCCUCUGCAGCACAGCGUCUCUGUAAAGGUUUUUAUGCUCAACAGAGGAUUGAGCAUCA | UNK zinc fingers 1-6, GST-SBP tag | RNA Bind-n-Seq | RNA, in vitro | not given, RNA with constant flanks, human and mouse sites, ends assumed | baseline: input RNA pool, higher = stronger binding | bound/input enrichment | 0.4 ratio |
| GGGAGUUCUACAGUCCGACGAUCGAACCUAAACUUACCGCAAAAGAGCCAAGCAGCCGCAGUUUUUGUAAAUGUAAAAAUAAUCCGAUCCAGACUUUGUUUCCUUCAAUUUUAAAAAUAAAAAAUACCUCAGUGCUAUGUUUUCAACAGAGGAUUGAGCAUCA | RING finger protein unkempt homolog, zinc fingers 1-6, SBP tag (UNK, Homo sapiens, UniProt Q9C0B0, residues 30-357) | RNA Bind-n-Seq | RNA, in vitro | 100 nM, RNA with constant flanks, ends assumed | baseline: input RNA pool, higher = stronger binding | bound/input enrichment | 0.854 ratio |

Repeated from above (other studies, line by line):
| Substance | target | assay | system | conditions | scale | quantity | value |
| --- | --- | --- | --- | --- | --- | --- | --- |
| GGGAGUUCUACAGUCCGACGAUCUUGAAGCAAGUUCUCGGCCAGAUGGUGAUUGAUGAGGAGCUUCUGGGAGAUGGACACAGCUAUAGUCCUAGAGCUAUUCAUUCAUGGCUGACCAGGGCCAUGUACAGCCGGCGCUCGAAGCAACAGAGGAUUGAGCAUCA | UNK zinc fingers 1-6, GST-SBP tag | RNA Bind-n-Seq | RNA, in vitro | not given, RNA with constant flanks, human and mouse sites, ends assumed | baseline: input RNA pool, higher = stronger binding | bound/input enrichment | 0.116 ratio |
| CC1=NN(c2ccc(C(=O)O)cc2)C(=O)C1=Cc1ccc(-c2cc(C)c(C)cc2[N+](=O)[O-])o1 | Replicase polyprotein 1ab, main protease (rep, Severe acute respiratory syndrome coronavirus 2, UniProt P0DTD1) | enzyme activity, inhibitor | – | 20 µM, primary screen | – | inhibition | 31.6% |
| GGGAGUUCUACAGUCCGACGAUCCCCCUCCCGGCCAGACGCUGGCCAUUGCUGCACCAUGUCGUUUUUUACAACAUUCAGCUUCAGCAUUUUUACUAUUAUAAUAAGAAACUGUCCCUCCAAAUUCAAUAAAAAUUGCUUUUCCAACAGAGGAUUGAGCAUCA | UNK zinc fingers 1-6, GST-SBP tag | RNA Bind-n-Seq | RNA, in vitro | not given, RNA with constant flanks, human and mouse sites, ends assumed | baseline: input RNA pool, higher = stronger binding | bound/input enrichment | 1.35 ratio |
| GGGAGUUCUACAGUCCGACGAUCAACUACGUGAAGAUUAAGCUUUGCUUACUGAUACAUGGCAUGUAUUCUUUUCAGUCUUUUGUGUUUGAUUUUGUUUGAUUUCCCUCUGCAGCACAGCGUCUCUGUAAAGGUUUUUAUGCUCAACAGAGGAUUGAGCAUCA | UNK zinc fingers 1-6, GST-SBP tag | RNA Bind-n-Seq | RNA, in vitro | not given, RNA with constant flanks, human and mouse sites, ends assumed | baseline: input RNA pool, higher = stronger binding | bound/input enrichment | 0.4 ratio |
| GGGAGUUCUACAGUCCGACGAUCGAACCUAAACUUACCGCAAAAGAGCCAAGCAGCCGCAGUUUUUGUAAAUGUAAAAAUAAUCCGAUCCAGACUUUGUUUCCUUCAAUUUUAAAAAUAAAAAAUACCUCAGUGCUAUGUUUUCAACAGAGGAUUGAGCAUCA | RING finger protein unkempt homolog, zinc fingers 1-6, SBP tag (UNK, Homo sapiens, UniProt Q9C0B0, residues 30-357) | RNA Bind-n-Seq | RNA, in vitro | 100 nM, RNA with constant flanks, ends assumed | baseline: input RNA pool, higher = stronger binding | bound/input enrichment | 0.854 ratio |
